# Assay results collected from several papers.
# Every numbered part comes from another study and shows a few of its results, in no order. Changes are numbered by the printed parent chain.

# Study 1 — target: CCND2, cyclin fold, Cln2 fusion (human); technique: yeast growth competition, sequencing; matrix: yeast; setting: weak parent motif; reference: not given; direction: higher = stronger binding
# Starting sequence: viral docking peptide; TSVRRALFTGGSD; partner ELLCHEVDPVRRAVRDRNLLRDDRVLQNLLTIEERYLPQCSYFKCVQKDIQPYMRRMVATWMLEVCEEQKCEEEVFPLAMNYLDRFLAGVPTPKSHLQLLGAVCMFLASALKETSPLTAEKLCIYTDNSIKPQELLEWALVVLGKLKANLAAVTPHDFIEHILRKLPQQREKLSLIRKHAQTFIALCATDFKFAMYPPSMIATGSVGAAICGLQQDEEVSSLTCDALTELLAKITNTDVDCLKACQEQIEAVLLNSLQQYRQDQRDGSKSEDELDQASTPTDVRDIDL
Change,normalised enrichment score
T9I,-0.26
G11S,0.073
T9H,0.181
R5M,0.239
S2Q,0.124
V3Y,0.0105
T9G,-0.0142
V3G,-0.0641
A6K,-0.091
R5V,-0.287
F8Q,0.103
G10W,0.0396
S2D,-0.222
V3P,0.386
A6R,-0.109
V3H,-0.0943
T9R,0.00582
L7D,-0.164
S12H,-0.182
G11C,0.0853
R5K,-0.159
S2V,-0.14
A6P,-0.116
L7W,0.142
S12Q,0.197

# Study 2 — technique: RNA Bind-n-Seq; form: RNA; matrix: in vitro; tested at: 365 nM; reference: no-protein control; direction: higher = stronger binding
# Target: RNA binding protein fox-1 homolog 2, RRM domain, GST-SBP tag (RBFOX2, Homo sapiens, UniProt O43251-10, residues 100-194)
# Setting: natural RNA segment, single round, ends assumed
# Shared flanks, not repeated: GGGAGUUCUACAGUCCGACGAUC … UGGAAUUCUCGGGUGCCAA
# Target sequence (chain): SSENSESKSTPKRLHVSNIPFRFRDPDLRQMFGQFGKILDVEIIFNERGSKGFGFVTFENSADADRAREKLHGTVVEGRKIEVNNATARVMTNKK
Sequence,RBNS enrichment (R)
ACAAUUGGCCUUUCUGAGCUGAUUUUUCCAUCUUUUGUAAUUAUCUUUAUUAAAAAAUUGUACUUGGAUCGUUUUCUGUCUGUUUAUUAUGAAAGCUUGUUUCCAAGUCA,0.907
AUAUUGCAACCCAGUAUAGGUGUAUUUCAAAAGCUAUUUAUAAAACUCAGAACAAUUUAACUUGCUAAUUAUAUCACCUUCCAGAUUGGAGAAAGGAGACAGUAAGGUAU,0.549
CCACAAAGCUAAAAGACUGCGCCCCAUUCUGAAGAAGGCACAAGUACAUGGGAGAGUCCUGCCUUACUUCUCCUGGACUGGCUUCCUCUUUGAGAAAAUGCACAAAGCUC,0.684
AUGUAAGCUCAGGGUUACACAGUUCCAAAUCUUGGGAAGGGGCUUUUCAGACAGACUGUUUGCUUUCUGCUGAGAUAAGGAAUGCAUCACUCUGCCAGAGUAUGACUUUU,0.463
UUCCAUUUUGCACUUGCACUAUUGAACAUGACCCUGCCAGAAAUGCAAAGGGAAUGAAAUCCUGAAGCUCAGAGUGAAGUUCAAACCACGGCGUCCCGCAGAGCCUAGUC,1
CAGCUCCAAGCCGAACACACGCUGUGAGCCACCACAGCCCAGGAAGCAGGAAAACCAAUCGUCUUCUUGACAGGGUGGCAUUUGGCCUUGAACAAAAUCAGGUCCCCUGG,0.238
UCAUCCCAGCACACUUCUAAUAGACCCCUUCAGUCACGGAGGGAGUGCCCCAAGGUUGGACAGGCACAUUCCCCUUGGACAGAGACUGCAAGUUGUGGCUUAUUUUCCUG,0.83
UUUUUCUUAACUUGAUCUGCAAUCCAGAAUUAGACCACAAUGCACCUUUGGUGGUAUCCAUAUAGGAUGCUAGCCUGCCUUGUAGUAAUGUUUUAUAUGUUAAAAACAAA,0.522

# Study 3 — technique: universal PBM; form: double-stranded DNA, one strand shown; matrix: in vitro; tested at: not given; direction: higher = stronger binding
# Target: Sal-like protein 4, full length isoform B (SALL4, Homo sapiens, UniProt Q9UJQ4-2, residues 1-616)
# Setting: 8-mer, flanks averaged, mean of replicates
Sequence,E-score
CTCTAAGC,-0.0465
CCGGAGAG,-0.273
CCATTTTC,0.158
CACCTCGG,-0.207
ATAGTCAA,0.17
AGAGATAG,0.113
AATAAATG,0.362
AAGACTCA,-0.0446

# Study 4 — target: CRIPT, C-terminal peptide; technique: DHFR complementation, deep sequencing; matrix: yeast; reference: wild type; direction: higher = weaker binding
# Setting: single substitutions, model-inferred values
# Starting sequence: ERBIN, PDZ domain 1 (human); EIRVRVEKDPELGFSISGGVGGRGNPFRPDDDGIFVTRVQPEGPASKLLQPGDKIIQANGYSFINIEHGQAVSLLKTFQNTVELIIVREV; partner TKNYKQTSV
Change,binding free energy change [kcal/mol]
R88C,0.415
G22V,0.0897
Y61N,0.0491
G52R,0.362
G13V,0.44
L74M,-0.0531
G33S,0.497
A45Q,1.54

# Study 5 — technique: RNAcompete; form: RNA; matrix: in vitro; tested at: 20 nM; setting: 7-mer, probes averaged, single round; reference: mean of 7-mers; direction: higher = stronger binding
# Target: PABPC1L2, full length, GST fusion (mouse, UniProt A0ABA7IW68)
# Residues (chain): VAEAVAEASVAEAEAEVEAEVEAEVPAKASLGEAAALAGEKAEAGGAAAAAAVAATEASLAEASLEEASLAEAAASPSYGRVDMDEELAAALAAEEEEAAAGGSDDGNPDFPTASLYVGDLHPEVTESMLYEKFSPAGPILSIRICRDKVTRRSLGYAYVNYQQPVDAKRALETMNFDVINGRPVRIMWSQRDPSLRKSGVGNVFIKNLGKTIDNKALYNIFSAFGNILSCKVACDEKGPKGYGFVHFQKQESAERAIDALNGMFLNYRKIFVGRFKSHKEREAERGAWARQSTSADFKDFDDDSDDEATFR
Sequence,7-mer Z-score
GUUUGCA,-0.291
UCUUUGU,-0.447
AGCCAGU,-0.284
AAGGUUC,-0.13
UUUAUCA,-0.106
UUUCGUG,-0.431
AACUUUC,-0.106
CCAUAUA,-0.179

# A few entries again (study 1):
Change,normalised enrichment score
V3G,-0.0641
T9H,0.181
S2D,-0.222
